Experimental data pooled from the literature.
Compare with care: the assays were run in different laboratories. ± marks the error that the study gave.
Urease: Urease (Canavalia ensiformis, UniProt P07374)
NPY2R: Neuropeptide Y receptor type 2 (NPY2R, Homo sapiens, UniProt P49146)
Oprk1: Kappa-type opioid receptor (Oprk1, Mus musculus, UniProt P33534)

SMILES	target	test	setting	Ki [nM]
CC[C@H](C)[C@H](NC(=O)CN)C(=O)N[C@H](C(=O)N[C@@H](CC(N)=O)C(=O)N[C@H](C(=O)N[C@@H](CC(C)C)C(=O)N[C@@H](CCC(N)=O)C(=O)N[C@@H](CCCCN)C(=O)N[C@@H](Cc1ccc(O)cc1)C(=O)N[C@@H](Cc1ccc(O)cc1)C(=O)N[C@H]1CSSC[C@@H]2NC(=O)[C@H](CCCCN)NC(=O)[C@H](CCCNC(=N)N)NC(=O)CNC(=O)[C@H](CCCNC(=N)N)NC(=O)[C@H]([C@@H](C)O)NC(=O)[C@H](CO)NC(=O)[C@@H]3CSSC[C@H](NC(=O)[C@H](CCC(N)=O)NC(=O)CNC(=O)CNC(=O)[C@H](CCC(N)=O)NC(=O)[C@H](C(C)C)NC(=O)[C@H](CCCNC(=N)N)NC1=O)C(=O)N[C@@H](C)C(=O)N[C@@H](C(C)C)C(=O)N[C@@H](CC(C)C)C(=O)N[C@@H](CO)C(=O)N[C@@H](CSSC[C@@H](C(=O)N[C@@H](CCCNC(=N)N)C(=O)N[C@@H](CCCNC(=N)N)C(=O)N[C@@H](CCCCN)C(=O)N[C@@H](CCCCN)C(N)=O)NC2=O)C(=O)N[C@@H](CC(C)C)C(=O)N1CCC[C@H]1C(=O)N[C@@H](CCC(N)=O)C(=O)N[C@@H](CCC(=O)O)C(=O)N[C@@H](CCC(=O)O)C(=O)N[C@@H](CCC(N)=O)C(=O)N[C@@H]([C@@H](C)CC)C(=O)NCC(=O)N[C@@H](CCCCN)C(=O)N3)[C@@H](C)O)[C@@H](C)CC	Melanocortin receptor 4 (MC4R, Homo sapiens, UniProt P32245)	ligand displacement in cells		147
CN(C)CP(=O)(O)O	Urease	enzyme activity, inhibitor, absorbance	pH 7	21000
NC(=O)Cn1c(-c2cccs2)noc1=O	Urease	enzyme activity, inhibitor		9690
CC(=O)N[C@@H](CCCNC(=N)N)C(=O)N[C@@H](Cc1ccc(O)cc1)C(=O)N[C@@H](CCCNC(=N)N)C(=O)N[C@@H](CC(C)C)C(=O)N[C@@H](CCCNC(=N)NC(=O)NCCCCN)C(=O)N[C@@H](Cc1ccc(O)cc1)C(N)=O	NPY2R	ligand displacement, radioligand		> 5000
Cc1cc2c(cc1Cl)Cc1c(C(=O)NC3CC4CC(C3C)C4(C)C)nn(-c3ccc(Cl)cc3Cl)c1-2 (stereo not shown)	Cannabinoid receptor 2 (Cnr2, Mus musculus, UniProt P47936)	ligand displacement, radioligand		350
C[C@H](NC(=O)[C@H](CCC(=O)O)NC(=O)[C@H](CO)NC(=O)[C@H](C)NC(=O)[C@H](CO)NC(=O)CSCCNC(=O)CCNC(=O)[C@H](O)C(C)(C)COP(=O)(O)OP(=O)(O)OC[C@H]1O[C@@H](n2cnc3c(N)ncnc32)[C@H](O)[C@@H]1OP(=O)(O)O)C(N)=O	ard1, with Naa15 (Schizosaccharomyces pombe, UniProt Q9UTI3)	noncompetitive with peptide substrate		8900 ± 100
CC[C@H](C)[C@H](NC(=O)[C@H](CCC(=O)O)NC(=O)[C@H](Cc1ccc(I)cc1)NC(=O)[C@@H](C)NC(=O)[C@@H](N)Cc1ccc(O)cc1)C(=O)N[C@H](C(=O)NCC(N)=O)[C@@H](C)CC	Oprk1	ligand displacement, radioligand	cell membranes	> 1000
CC[C@H](C)[C@H](NC(=O)[C@@H]1CSSC[C@H](NC(=O)[C@H](Cc2ccc(O)cc2)NC(=O)CNC(C)=O)C(=O)N[C@@H](CO)C(=O)N[C@@H](CCCNC(=N)N)C(=O)N[C@@H](CO)C(=O)N[C@@H](Cc2ccc(O)cc2)C(=O)N2CCC[C@H]2C(=O)N2CCC[C@H]2C(=O)N[C@@H](C(C)C)C(=O)N1)C(=O)N1CCC[C@H]1C(=O)N[C@@H](CC(=O)O)C(N)=O	Serine protease 1 (PRSS1, Bos taurus, UniProt P00760)	enzyme activity, inhibitor		90
CC(=O)N[C@@H](CCCNC(=N)N)C(=O)N[C@@H](Cc1ccc(O)cc1)C(=O)N[C@@H](CCCNC(=N)NC(=O)NCCCCN)C(=O)N[C@H](CC(C)C)C(=O)N[C@@H](CCCNC(=N)N)C(=O)N[C@@H](Cc1ccc(O)cc1)C(N)=O	NPY2R	ligand displacement, radioligand		> 5000
C[C@H]1[C@H]2CCC[C@]1(c1cccc(O)c1)CCN2CCc1ccccc1	Oprk1	ligand displacement, radioligand	cell membranes	12.1

Some of these lines once more:
SMILES	target	test	setting	Ki [nM]
CN(C)CP(=O)(O)O	Urease	enzyme activity, inhibitor, absorbance	pH 7	21000
